Measurements gathered from unrelated publications.
Each numbered part is a random draw from the data of one study; scales do not carry over between parts. Several values in a cell are separate wells, animals, samples, runs or records.
UniProt Q9Y243, sequence (whole entry, looked up): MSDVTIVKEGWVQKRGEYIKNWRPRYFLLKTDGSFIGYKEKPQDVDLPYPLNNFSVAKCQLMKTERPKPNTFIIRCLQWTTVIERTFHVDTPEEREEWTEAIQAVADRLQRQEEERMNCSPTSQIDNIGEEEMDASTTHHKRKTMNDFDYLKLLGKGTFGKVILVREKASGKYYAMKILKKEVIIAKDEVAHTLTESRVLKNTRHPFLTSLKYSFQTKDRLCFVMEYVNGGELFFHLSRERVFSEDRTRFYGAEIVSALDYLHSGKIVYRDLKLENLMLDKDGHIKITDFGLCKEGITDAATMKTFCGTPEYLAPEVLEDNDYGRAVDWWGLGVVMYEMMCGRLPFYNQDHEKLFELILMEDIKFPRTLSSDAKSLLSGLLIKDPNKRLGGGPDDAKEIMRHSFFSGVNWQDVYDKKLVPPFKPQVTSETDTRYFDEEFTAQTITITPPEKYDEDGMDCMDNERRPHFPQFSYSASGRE
UniProt Q96PY6, sequence (whole entry, looked up): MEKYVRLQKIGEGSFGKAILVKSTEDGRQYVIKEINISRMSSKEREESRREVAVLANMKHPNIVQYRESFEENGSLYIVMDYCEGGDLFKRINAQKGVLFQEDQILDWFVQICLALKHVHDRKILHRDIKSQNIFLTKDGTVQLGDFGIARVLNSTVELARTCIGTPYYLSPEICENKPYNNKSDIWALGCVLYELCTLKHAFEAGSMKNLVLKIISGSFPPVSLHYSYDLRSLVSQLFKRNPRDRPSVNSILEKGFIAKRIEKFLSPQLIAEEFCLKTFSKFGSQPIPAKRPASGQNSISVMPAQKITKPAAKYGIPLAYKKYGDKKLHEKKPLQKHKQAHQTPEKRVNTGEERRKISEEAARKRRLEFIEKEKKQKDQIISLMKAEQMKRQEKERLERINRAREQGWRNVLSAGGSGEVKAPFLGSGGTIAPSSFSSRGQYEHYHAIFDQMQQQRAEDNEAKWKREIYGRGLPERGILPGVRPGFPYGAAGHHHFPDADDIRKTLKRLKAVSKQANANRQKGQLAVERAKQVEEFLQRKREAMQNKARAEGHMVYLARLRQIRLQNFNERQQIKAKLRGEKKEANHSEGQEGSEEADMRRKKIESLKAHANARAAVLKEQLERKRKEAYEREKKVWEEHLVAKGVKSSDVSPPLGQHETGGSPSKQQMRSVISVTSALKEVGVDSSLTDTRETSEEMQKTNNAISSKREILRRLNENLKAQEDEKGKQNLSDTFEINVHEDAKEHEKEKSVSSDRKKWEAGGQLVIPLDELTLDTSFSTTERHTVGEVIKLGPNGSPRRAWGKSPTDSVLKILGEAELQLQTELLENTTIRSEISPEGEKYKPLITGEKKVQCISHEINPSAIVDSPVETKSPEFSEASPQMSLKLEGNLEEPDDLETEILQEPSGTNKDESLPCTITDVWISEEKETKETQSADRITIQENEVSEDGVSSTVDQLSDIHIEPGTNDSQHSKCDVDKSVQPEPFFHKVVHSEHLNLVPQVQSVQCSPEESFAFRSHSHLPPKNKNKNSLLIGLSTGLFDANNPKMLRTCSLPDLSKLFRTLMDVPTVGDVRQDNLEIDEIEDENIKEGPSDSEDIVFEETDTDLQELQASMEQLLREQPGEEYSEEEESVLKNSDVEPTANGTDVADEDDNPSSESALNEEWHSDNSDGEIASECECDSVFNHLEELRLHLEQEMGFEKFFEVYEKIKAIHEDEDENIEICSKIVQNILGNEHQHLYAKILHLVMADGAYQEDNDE
UniProt Q96PN8, sequence (whole entry, looked up): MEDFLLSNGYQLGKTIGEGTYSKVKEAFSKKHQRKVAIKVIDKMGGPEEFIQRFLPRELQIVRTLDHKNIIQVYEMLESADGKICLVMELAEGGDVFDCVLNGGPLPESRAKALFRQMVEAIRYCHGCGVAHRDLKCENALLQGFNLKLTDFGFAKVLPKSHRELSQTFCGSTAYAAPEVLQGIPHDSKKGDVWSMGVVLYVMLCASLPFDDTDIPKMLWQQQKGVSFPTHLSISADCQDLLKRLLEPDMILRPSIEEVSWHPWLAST

Study 1
Compound: CS(=O)(=O)NCC[C@H](NC(=O)c1cncc2c1cnn2-c1ccc(F)cc1)c1ccnc(S(C)(=O)=O)c1
Observed: cell-free assay
Method: competition with immobilised ligand
Concentration: 1 µM
Tyrosine-protein kinase ABL1, non-phosphorylated (ABL1, Homo sapiens, UniProt P00519, Q252H) — remaining binding: 81%.
The remaining binding was 78% (Serine/threonine-protein kinase 25 (STK25, Homo sapiens, UniProt O00506)).
Fibroblast growth factor receptor 3 (FGFR3, Homo sapiens, UniProt P22607, G697C) — remaining binding: 82%.
For Testis-specific serine/threonine-protein kinase 1 (TSSK1B, Homo sapiens, UniProt Q9BXA7): remaining binding read 99%.
For Macrophage-stimulating protein receptor (MST1R, Homo sapiens, UniProt Q04912): remaining binding read 99%.
It gave 97% for remaining binding (Mitogen-activated protein kinase kinase kinase 9 (MAP3K9, Homo sapiens, UniProt P80192)).
For Ribosomal protein S6 kinase alpha-1, C-terminal kinase domain (RPS6KA1, Homo sapiens, UniProt Q15418): remaining binding read 100%.
Serine/threonine-protein kinase RIO2 (RIOK2, Homo sapiens, UniProt Q9BVS4) — remaining binding: 100%.
For Testis-specific serine/threonine-protein kinase 3 (TSSK3, Homo sapiens, UniProt Q96PN8): remaining binding read 100%.
Proto-oncogene tyrosine-protein kinase receptor Ret (RET, Homo sapiens, UniProt P07949, V804L) — remaining binding: 100%.
The remaining binding was 87% (Serine/threonine-protein kinase 33 (STK33, Homo sapiens, UniProt Q9BYT3)).
It gave 88% for remaining binding (Serine/threonine-protein kinase OSR1 (OXSR1, Homo sapiens, UniProt O95747)).
It gave 87% for remaining binding (Ephrin type-A receptor 3 (EPHA3, Homo sapiens, UniProt P29320)).
The remaining binding was 97% (5'-AMP-activated protein kinase catalytic subunit alpha-2 (PRKAA2, Homo sapiens, UniProt P54646)).
It gave 93% for remaining binding (RAC-gamma serine/threonine-protein kinase (AKT3, Homo sapiens, UniProt Q9Y243)).
For Microtubule-associated serine/threonine-protein kinase 1 (MAST1, Homo sapiens, UniProt Q9Y2H9): remaining binding read 100%.
Phosphorylase b kinase gamma catalytic chain, skeletal muscle/heart isoform (PHKG1, Homo sapiens, UniProt Q16816) — remaining binding: 75%.
For Serine/threonine-protein kinase 26 (STK26, Homo sapiens, UniProt Q9P289): remaining binding read 98%.
Serine/threonine-protein kinase Nek9 (NEK9, Homo sapiens, UniProt Q8TD19) — remaining binding: 100%.
The remaining binding was 100% (Mitogen-activated protein kinase kinase kinase 13 (MAP3K13, Homo sapiens, UniProt O43283)).
It gave 100% for remaining binding (Ephrin type-A receptor 6 (EPHA6, Homo sapiens, UniProt Q9UF33)).
It gave 92% for remaining binding (Dual specificity mitogen-activated protein kinase kinase 5 (MAP2K5, Homo sapiens, UniProt Q13163)).
It gave 100% for remaining binding (Non-receptor tyrosine-protein kinase TYK2, JH2 (TYK2, Homo sapiens, UniProt P29597)).
For Mitogen-activated protein kinase kinase kinase 2 (MAP3K2, Homo sapiens, UniProt Q9Y2U5): remaining binding read 100%.
Dual specificity mitogen-activated protein kinase kinase 3 (MAP2K3, Homo sapiens, UniProt P46734) — remaining binding: 100%.

Study 2
Structure (SMILES): O=C(Nc1cnn(-c2csc(C(=O)NC3COC3)c2)c1)Nc1c(F)cccc1Cl
Observed: enzyme activity
Concentration: 5 µM
Baseline: untreated control
The remaining activity was 88.5% (Mitogen-activated protein kinase kinase kinase 20 (MAP3K20, Homo sapiens, UniProt Q9NYL2)).
For Dual specificity testis-specific protein kinase 1 (TESK1, Homo sapiens, UniProt Q15569): remaining activity read 91%.
For Serine/threonine-protein kinase Nek1 (NEK1, Homo sapiens, UniProt Q96PY6): remaining activity read 68.7%.
Serine/threonine-protein kinase Chk2 (CHEK2, Homo sapiens, UniProt O96017) — remaining activity: 89.8%.
Dual specificity protein kinase CLK4 (CLK4, Homo sapiens, UniProt Q9HAZ1) — remaining activity: 92.9%.
Vascular endothelial growth factor receptor 2 (KDR, Homo sapiens, UniProt P35968) — remaining activity: 87.5%.
For Cyclin-dependent kinase 17, with cyclin Y (CDK17, Homo sapiens, UniProt Q00537): remaining activity read 94.3%.
For Homeodomain-interacting protein kinase 2 (HIPK2, Homo sapiens, UniProt Q9H2X6): remaining activity read 92.5%.

Study 3
Target: DNA polymerase theta, ATPase domain (POLQ, Homo sapiens, UniProt O75417)
UniProt O75417, sequence (whole entry, unmodified, looked up): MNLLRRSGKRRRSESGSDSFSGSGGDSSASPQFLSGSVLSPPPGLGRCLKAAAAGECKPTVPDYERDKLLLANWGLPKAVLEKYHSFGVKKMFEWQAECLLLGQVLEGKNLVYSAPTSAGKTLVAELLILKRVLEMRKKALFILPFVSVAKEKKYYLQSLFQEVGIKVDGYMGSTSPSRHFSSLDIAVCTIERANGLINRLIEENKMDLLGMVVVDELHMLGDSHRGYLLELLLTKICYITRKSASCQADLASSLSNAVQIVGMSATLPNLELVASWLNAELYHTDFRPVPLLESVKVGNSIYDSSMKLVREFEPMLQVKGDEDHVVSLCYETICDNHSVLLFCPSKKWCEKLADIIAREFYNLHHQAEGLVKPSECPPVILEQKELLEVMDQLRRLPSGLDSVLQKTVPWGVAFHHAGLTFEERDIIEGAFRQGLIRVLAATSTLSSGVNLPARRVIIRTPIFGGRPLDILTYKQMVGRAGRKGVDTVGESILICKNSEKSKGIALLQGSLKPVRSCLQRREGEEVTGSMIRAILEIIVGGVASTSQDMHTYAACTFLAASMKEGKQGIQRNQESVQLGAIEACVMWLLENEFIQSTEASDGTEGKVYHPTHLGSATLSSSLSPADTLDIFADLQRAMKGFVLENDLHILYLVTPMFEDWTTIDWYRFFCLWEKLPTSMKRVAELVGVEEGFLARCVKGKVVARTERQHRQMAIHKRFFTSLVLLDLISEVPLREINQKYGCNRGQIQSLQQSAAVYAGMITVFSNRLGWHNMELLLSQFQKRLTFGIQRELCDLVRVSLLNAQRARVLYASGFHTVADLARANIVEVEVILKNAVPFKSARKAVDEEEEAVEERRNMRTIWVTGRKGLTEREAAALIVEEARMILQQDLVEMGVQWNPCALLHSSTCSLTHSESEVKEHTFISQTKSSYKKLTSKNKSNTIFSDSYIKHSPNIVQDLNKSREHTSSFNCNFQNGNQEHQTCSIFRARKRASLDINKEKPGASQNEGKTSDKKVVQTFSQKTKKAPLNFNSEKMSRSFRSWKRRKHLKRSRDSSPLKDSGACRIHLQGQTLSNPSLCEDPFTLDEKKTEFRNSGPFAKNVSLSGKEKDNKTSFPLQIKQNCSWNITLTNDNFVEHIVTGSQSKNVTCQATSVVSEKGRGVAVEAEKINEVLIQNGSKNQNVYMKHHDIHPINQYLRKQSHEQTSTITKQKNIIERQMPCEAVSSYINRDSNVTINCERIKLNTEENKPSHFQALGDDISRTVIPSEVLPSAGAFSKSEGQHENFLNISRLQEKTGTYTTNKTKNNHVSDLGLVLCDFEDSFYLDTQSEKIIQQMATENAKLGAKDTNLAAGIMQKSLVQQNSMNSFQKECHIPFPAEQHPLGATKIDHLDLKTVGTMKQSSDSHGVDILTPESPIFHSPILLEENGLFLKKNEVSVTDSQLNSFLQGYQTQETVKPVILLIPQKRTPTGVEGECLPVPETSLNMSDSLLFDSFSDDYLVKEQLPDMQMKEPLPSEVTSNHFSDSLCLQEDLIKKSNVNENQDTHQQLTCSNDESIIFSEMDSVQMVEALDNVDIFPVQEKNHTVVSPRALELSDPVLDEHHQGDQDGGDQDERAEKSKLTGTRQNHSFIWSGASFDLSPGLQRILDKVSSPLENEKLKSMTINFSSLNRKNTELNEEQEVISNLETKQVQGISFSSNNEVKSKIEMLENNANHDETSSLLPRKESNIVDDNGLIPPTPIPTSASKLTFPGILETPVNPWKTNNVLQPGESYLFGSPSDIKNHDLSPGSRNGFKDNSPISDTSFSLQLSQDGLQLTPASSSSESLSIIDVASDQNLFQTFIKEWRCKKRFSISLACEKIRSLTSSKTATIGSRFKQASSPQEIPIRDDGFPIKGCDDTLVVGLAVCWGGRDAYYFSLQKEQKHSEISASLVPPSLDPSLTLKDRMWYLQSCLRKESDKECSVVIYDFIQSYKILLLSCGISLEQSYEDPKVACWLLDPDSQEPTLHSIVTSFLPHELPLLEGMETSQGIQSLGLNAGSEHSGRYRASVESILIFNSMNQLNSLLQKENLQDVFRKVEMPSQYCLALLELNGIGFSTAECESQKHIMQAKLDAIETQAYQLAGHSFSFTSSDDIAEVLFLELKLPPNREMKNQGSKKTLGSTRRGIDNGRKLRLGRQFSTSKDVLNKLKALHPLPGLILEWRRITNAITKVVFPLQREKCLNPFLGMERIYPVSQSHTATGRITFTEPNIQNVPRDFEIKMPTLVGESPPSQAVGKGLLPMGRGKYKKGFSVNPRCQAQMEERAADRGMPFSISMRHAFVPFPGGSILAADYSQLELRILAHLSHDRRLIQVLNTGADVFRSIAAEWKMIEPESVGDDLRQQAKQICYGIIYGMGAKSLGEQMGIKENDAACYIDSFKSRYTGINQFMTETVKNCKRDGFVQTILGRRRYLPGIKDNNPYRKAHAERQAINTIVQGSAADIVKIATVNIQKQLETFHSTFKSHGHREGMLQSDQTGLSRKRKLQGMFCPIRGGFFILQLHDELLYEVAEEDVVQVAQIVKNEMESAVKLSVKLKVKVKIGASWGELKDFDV
Observed: enzyme activity
Mode: inhibitor
Concentration: 77 µM
Baseline: untreated
The remaining activity of `CC(=O)Oc1ccc(C(c2ccc(OC(C)=O)cc2)c2ccccn2)cc1` is reported as 96.9% and 107%.
The remaining activity of `COc1ccc(CNc2nc(N3CCC[C@H]3CO)ncc2C(=O)NCc2ncccn2)cc1Cl` is reported as 102%.
For `COc1c(C)c2c(c(O)c1C/C=C(\C)CCC(=O)OCCN1CCOCC1)C(=O)OC2`, the remaining activity was 81%.
With `CCCN(CCc1ccccc1)C1CCc2c(O)cccc2C1` (centres unmarked) the remaining activity was 101%.
The remaining activity of `CCCCCCCC/C=C\CCCCCCCC(=O)NCCc1ccc(O)c(O)c1` is reported as 108%.
The remaining activity of `CC(=O)[C@@]1(O)CC[C@H]2[C@@H]3C[C@H](C)C4=CC(=O)C=C[C@]4(C)[C@@]3(F)[C@@H](O)C[C@@]21C` is reported as 99.4%.

Study 4
Target: Beta-1 adrenergic receptor (ADRB1, Homo sapiens, UniProt P08588)
UniProt P08588, sequence (whole entry, looked up): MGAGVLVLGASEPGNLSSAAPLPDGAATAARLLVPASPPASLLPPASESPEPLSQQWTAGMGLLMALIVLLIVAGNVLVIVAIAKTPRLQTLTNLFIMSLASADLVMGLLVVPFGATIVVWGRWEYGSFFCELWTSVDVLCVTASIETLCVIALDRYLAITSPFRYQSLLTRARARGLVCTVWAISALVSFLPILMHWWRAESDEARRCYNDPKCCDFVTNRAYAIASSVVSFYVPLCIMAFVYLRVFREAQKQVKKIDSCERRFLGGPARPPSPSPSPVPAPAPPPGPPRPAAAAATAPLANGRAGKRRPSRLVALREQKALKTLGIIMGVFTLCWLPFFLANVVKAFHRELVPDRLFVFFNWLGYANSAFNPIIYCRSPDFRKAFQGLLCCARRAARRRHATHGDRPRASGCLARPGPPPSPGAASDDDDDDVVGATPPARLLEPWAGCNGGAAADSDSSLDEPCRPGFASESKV
Mode: antagonist
The IC50 of `N#C/C(=C\c1ccc(O)c(O)c1)c1nc2ccccc2[nH]1` is reported as no less than 100 µM.
The IC50 of `COc1ccc(CN2CCOc3nc(-c4cn[nH]c4)ncc3C2=O)cc1` is reported as no less than 100 µM.
`CN(Cc1ccc2nonc2c1)Cc1ccccc1OCC(O)CN1CCCCC1` (centres unmarked) gave an IC50 of no less than 100 µM.
The IC50 of `CCN(Cc1cccc(S(=O)(=O)O)c1)c1cccc(C(=C2C=CC(=[N+](CC)Cc3cccc(S(=O)(=O)O)c3)C=C2)c2ccc(O)cc2S(=O)(=O)[O-])c1` is reported as 15.8 µM.
With `CN(C)c1ccc(CNC2(Cc3cc(-c4cccc(O)c4)on3)COC2)cc1` the IC50 was no less than 100 µM.
For `O=C(NCC1CCN(CCc2ccccc2)C1)c1ccc2[nH]cnc2c1` (centres unmarked), the IC50 was no less than 100 µM.
For `Cc1ccc(-c2nnc(-c3cc(-c4ccccc4)nc4ccccc34)o2)cc1`, the IC50 was no less than 100 µM.
With `O=c1cc(-c2ccccn2)oc2c(-c3cn[nH]c3)nccc12` the IC50 was no less than 100 µM.

Study 5
Organism: Sarcocystis neurona
Observed: parasite growth
Concentration: 10 µM
Time: 96 h
The inhibition of `O=C(O)Cc1ccccc1Nc1c(Cl)cccc1Cl` is reported as -5.9%.
`C=C(CC)C(=O)c1ccc(OCC(=O)O)c(Cl)c1Cl` has an inhibition of -2.5%.
With `c1ccc2c(CC3=NCCN3)cccc2c1` the inhibition was -5.4%.
For `C[C@H](CCC(=O)O)[C@H]1CC[C@H]2[C@@H]3C(=O)C[C@@H]4CC(=O)CC[C@]4(C)[C@H]3CC(=O)[C@]12C`, the inhibition was -12.1%.
With `Clc1ccc2c(c1)C(N1CCNCC1)=Nc1ccccc1O2` the inhibition was -9%.
With `CN(C)CCOc1ccc(/C(=C(/CCCl)c2ccccc2)c2ccccc2)cc1` the inhibition was -15.9%.
With `CCN(CC)CC1CCCCN1CC(=O)N1c2ccccc2C(=O)Nc2cccnc21` (centres unmarked) the inhibition was -11.6%.
`CCC(=O)NS(=O)(=O)c1ccc(-c2c(-c3ccccc3)noc2C)cc1` has an inhibition of -6.9%.

Other studies, line by line
`Cc1ncc(-c2cc3cc(-c4c(C)ccc(O)c4C)cnc3[nH]2)cn1` has an IC50 of greater than 10 µM (HCC1569; in-cell western, item: CDK1 phospho-Thr14).

For quick reference, copied from above (study 1):
Serine/threonine-protein kinase Nek9 (NEK9, Homo sapiens, UniProt Q8TD19) — remaining binding: 100%.
The remaining binding was 100% (Mitogen-activated protein kinase kinase kinase 13 (MAP3K13, Homo sapiens, UniProt O43283)).
It gave 100% for remaining binding (Ephrin type-A receptor 6 (EPHA6, Homo sapiens, UniProt Q9UF33)).
It gave 92% for remaining binding (Dual specificity mitogen-activated protein kinase kinase 5 (MAP2K5, Homo sapiens, UniProt Q13163)).
It gave 100% for remaining binding (Non-receptor tyrosine-protein kinase TYK2, JH2 (TYK2, Homo sapiens, UniProt P29597)).
For Mitogen-activated protein kinase kinase kinase 2 (MAP3K2, Homo sapiens, UniProt Q9Y2U5): remaining binding read 100%.
